Assay results from different studies.
Every numbered part comes from another study and shows a few of its results, in no order.

Block 1
Target: Prothrombin, mature alpha-thrombin (F2, Homo sapiens, UniProt P00734)
Technique: aptamer microarray, sandwich
Form: DNA with 2'F-ANA
Matrix: in vitro
Tested at: 200 nM
Notes: whole 15-mer aptamer, many near background
With: Cy3 exosite-II aptamer, 400 nM
Reading: higher = stronger binding
Endpoint: mean fluorescence intensity
GGTTGGTGTGGTTGG (2'F-ANA at 1 3 5 9 10 11 14 15): 46.4 a.u.
GGTTGGTGTGGTTGG (2'F-ANA at 2 5 7 8 12 13 14 15): 47.2 a.u.
GGTTGGTGTGGTTGG (2'F-ANA at 1 2 6 9 11 12 14): 69.5 a.u.

Block 2
Target: Sal-like protein 4, full length isoform A (SALL4, Homo sapiens, UniProt Q9UJQ4, residues 1-1053)
Sequence of UniProt Q9UJQ4 (whole entry, looked up): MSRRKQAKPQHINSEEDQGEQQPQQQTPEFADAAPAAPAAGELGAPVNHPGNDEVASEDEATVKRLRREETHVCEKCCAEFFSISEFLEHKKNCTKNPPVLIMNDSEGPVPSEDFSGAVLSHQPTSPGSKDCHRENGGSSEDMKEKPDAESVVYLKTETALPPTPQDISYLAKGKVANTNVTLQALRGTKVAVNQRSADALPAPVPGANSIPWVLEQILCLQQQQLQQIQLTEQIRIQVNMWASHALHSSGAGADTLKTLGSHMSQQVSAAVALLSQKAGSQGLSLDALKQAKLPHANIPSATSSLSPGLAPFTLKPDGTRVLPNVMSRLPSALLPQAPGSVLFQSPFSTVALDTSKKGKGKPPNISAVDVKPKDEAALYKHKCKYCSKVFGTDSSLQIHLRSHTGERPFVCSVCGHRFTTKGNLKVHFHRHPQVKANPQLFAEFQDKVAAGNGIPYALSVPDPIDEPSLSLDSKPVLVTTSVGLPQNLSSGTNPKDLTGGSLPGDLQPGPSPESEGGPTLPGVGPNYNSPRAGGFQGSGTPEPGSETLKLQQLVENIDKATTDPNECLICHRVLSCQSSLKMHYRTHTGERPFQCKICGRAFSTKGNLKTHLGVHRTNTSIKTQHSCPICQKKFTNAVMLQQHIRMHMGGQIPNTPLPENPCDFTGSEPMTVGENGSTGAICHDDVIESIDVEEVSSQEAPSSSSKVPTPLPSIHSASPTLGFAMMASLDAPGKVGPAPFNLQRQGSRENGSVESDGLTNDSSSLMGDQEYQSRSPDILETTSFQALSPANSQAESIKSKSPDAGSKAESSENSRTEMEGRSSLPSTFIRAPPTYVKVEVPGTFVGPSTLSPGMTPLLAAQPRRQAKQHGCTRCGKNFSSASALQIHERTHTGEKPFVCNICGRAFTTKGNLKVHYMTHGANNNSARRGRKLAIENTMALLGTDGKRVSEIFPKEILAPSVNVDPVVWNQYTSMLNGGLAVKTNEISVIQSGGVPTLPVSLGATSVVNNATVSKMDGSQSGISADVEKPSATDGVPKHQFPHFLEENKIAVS
Technique: universal PBM
Form: double-stranded DNA, one strand shown
Matrix: in vitro
Tested at: 600 nM
Notes: 8-mer, flanks averaged, mean of replicates
Reading: higher = stronger binding
Endpoint: E-score
GGCAGTAA: -0.133
GCCAGCGC: -0.309
ATTACAAG: 0.341
AGCCAACC: -0.165
AGAGATCG: -0.17

Block 3
Target: Histone acetyltransferase KAT6A, winged helix 1, GST fusion (KAT6A, Homo sapiens, UniProt Q92794, residues 1-85)
Technique: protein binding microarray
Form: double-stranded DNA, one strand shown
Matrix: in vitro
Tested at: not given
Notes: 8-mer, flanks averaged, mean of 2 arrays, mostly near background
Baseline: not given
Reading: higher = stronger binding
Endpoint: E-score
Residues (chain): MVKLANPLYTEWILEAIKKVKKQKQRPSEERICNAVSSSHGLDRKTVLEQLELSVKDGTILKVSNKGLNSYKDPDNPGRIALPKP
CGACGCTC: 0.314
ACTCCTAC: -0.133
ACTGACCC: -0.023
GGGGATGA: -0.0675

Other studies, line by line
PhoQ, residues 284 288 289 292 302 303 SLKLQV
fold induction (PhoP, residues 12 14 15 18 19 LWHVM (Escherichia coli, UniProt P23836); Sort-seq, measured: YFP reporter; E. coli; PhoQ-PhoP variant library, with: 10 µM Mg2+; baseline: high Mg2+ state, higher = stronger signaling): 8.2

A few entries again (other studies, line by line):
PhoQ, residues 284 288 289 292 302 303 SLKLQV
fold induction (PhoP, residues 12 14 15 18 19 LWHVM (Escherichia coli, UniProt P23836); Sort-seq, measured: YFP reporter; E. coli; PhoQ-PhoP variant library, with: 10 µM Mg2+; baseline: high Mg2+ state, higher = stronger signaling): 8.2
